{"data": "Results pooled from the literature", "note": "± marks the error that the study gave."}
{"Compound": "CC(=O)Oc1ccc(/C=C/C(=O)Nc2nc(=O)n([C@@H]3O[C@H](C)[C@@H](OC(C)=O)[C@H]3OC(C)=O)cc2F)c(OC(C)=O)c1", "cell line": "ASPC1", "assay": "cell viability, MTT", "scale": "relative to: NHDF fibroblasts over ASPC1", "endpoint": "selectivity index", "result": 1.43}
{"Compound": "CCCCCCCCC[P+](c1ccccc1)(c1ccccc1)c1ccccc1", "cell line": "HCT-116", "assay": "cell growth or viability, MTT", "conditions": "72 h", "endpoint": "GI50", "result": "77 nM"}
{"Compound": "F[P-](F)(F)(F)(F)F.F[P-](F)(F)(F)(F)F.[Ru+2].c1ccc(-c2ccccn2)nc1.c1ccc(-c2ccccn2)nc1.c1csc(-c2ccc(-c3ccc(-c4cc5cccnc5c5ncccc45)s3)s2)c1", "cell line": "HL-60", "assay": "cell viability", "conditions": "visible light", "scale": "relative to: dark EC50 over light EC50", "endpoint": "phototherapeutic index", "result": 800}
{"Compound": "CC(C)CC(O)(CC(C)C)c1cn(C(=O)N2CCCC2)nn1", "cell line": "mouse T-cells", "assay": "N-terminal labeled proteins, N-terminal enrichment proteomics, refers to: PTPN18", "conditions": "1 nM, 6 h", "scale": "relative to: DMSO", "endpoint": "SILAC ratio", "result": "3.58 ± 0.45"}
{"Compound": "CC[C@H]1OC(=O)[C@H](C(C)C)NC(=O)[C@H](C)OC(=O)[C@@H](C(C)C)NC(=O)[C@@H](C(C)C)OC(=O)[C@H](C(C)C)NC(=O)[C@H](C)OC(=O)[C@@H](C(C)C)NC(=O)[C@@H](C(C)C)OC(=O)[C@H](C(C)C)NC(=O)[C@H](C)OC(=O)[C@@H](C(C)C)NC1=O", "cell line": "U-251", "assay": "PI staining flow cytometry", "conditions": "0.8 µM, 12 h", "endpoint": "G0/G1 phase cells", "result": "62.4%"}
{"Compound": "CC[C@@]1(O)C(=O)OCc2c1cc1n(c2=O)Cc2cc3cc(OC(=O)CCCC(=O)NCC(=O)N[C@@H](Cc4ccccc4)C(=O)N[C@@H](Cc4ccccc4)C(=O)N[C@@H](Cc4ccc(OP(=O)(O)O)cc4)C(=O)NCCSSCCNC(=O)CCC(=O)N[C@@H](CCC(=O)O)C(=O)N[C@@H](CCCNC(=N)N)C(=O)NCC(=O)N[C@@H](CC(=O)O)C(=O)O)ccc3nc2-1", "cell line": "HepG2", "assay": "annexin V/PI flow cytometry", "conditions": "200 nM, 48 h", "endpoint": "early apoptotic cells", "result": "13.6%"}
{"Compound": "O=C(O)CCC(NP(=O)(O)OCCC[C@@H](NC(=O)CCC(NC(=O)c1ccc([18F])cc1)C(=O)O)C(=O)O)C(=O)O (stereo partly drawn)", "cell line": "CWR22Rv1", "conditions": "1 h", "endpoint": "internalized fraction", "result": "80.7%"}
{"Compound": "C[C@H]1C(OCCCCCCCCCC[P+](c2ccccc2)(c2ccccc2)c2ccccc2)O[C@@H]2O[C@@]3(C)CCC4[C@H](C)CCC1[C@]42OO3 (stereo partly drawn)", "cell line": "T24", "assay": "MTT", "conditions": "72 h", "scale": "relative to: HUVEC IC50 over T24 IC50", "endpoint": "selectivity index", "result": 3.07}
{"Compound": "CC(=O)N1CCCC[C@H]1C(=O)NC(C)(C)C(=O)N1CCCC[C@H]1C(=O)NC(C)(C)C(=O)NC(C)(C)C(=O)N[C@@H](CC(C)C)C(=O)NCCC(=O)N[C@@H](C)C(=O)NC(C)(C)C(=O)NC(C)(C)C(=O)N1CCCC[C@H]1C(=O)NC(C)(C)C(=O)NCC(=O)N[C@@H](CC(C)C)C(=O)NC(C)(C)C(=O)N[C@@H](CC(C)C)C[N+]1=C2CCCN2CCC1", "cell line": "39 cancer cell lines", "conditions": "48 h, mean over panel", "endpoint": "GI50", "result": "437 nM"}
{"Compound": "COc1ccccc1/C=C/[N+](=O)[O-]", "cell line": "MOLM-13", "assay": "cell growth or viability", "conditions": "72 h", "endpoint": "CC50", "result": "560 nM"}
{"Compound": "Cc1ccc(NCCN(C)CCNc2ccnc3cc(Cl)ccc23)c2c(=O)c3ccccc3sc12", "cell line": "Vero E6", "assay": "autophagy", "conditions": "concentration not given, 16 h", "scale": "relative to: chloroquine", "endpoint": "LC3B spot count increase", "result": "80%"}
{"Compound": "CC12CCC3(CCC(=O)NCCCNc4ccnc5cc(Cl)ccc45)C(C)(OOC3(C)O1)O2", "cell line": "HL-60", "assay": "cell growth or viability, resazurin", "conditions": "10 µM, 48 h", "endpoint": "inhibition", "result": "6.3%"}
{"note": "Some of these lines once more:"}
{"Compound": "COc1ccccc1/C=C/[N+](=O)[O-]", "cell line": "MOLM-13", "assay": "cell growth or viability", "conditions": "72 h", "endpoint": "CC50", "result": "560 nM"}
{"Compound": "CCCCCCCCC[P+](c1ccccc1)(c1ccccc1)c1ccccc1", "cell line": "HCT-116", "assay": "cell growth or viability, MTT", "conditions": "72 h", "endpoint": "GI50", "result": "77 nM"}
